Measurements from different studies.
Numbered parts are unrelated; each lists some results of a single study. Changes are numbered by the printed parent chain.

Series 1
Target: RNA binding protein fox-1 homolog 2, RRM domain, GST-SBP tag (RBFOX2, Homo sapiens, UniProt O43251-10, residues 100-194)
Method: RNA Bind-n-Seq
Form: RNA
Matrix: in vitro
Tested at: 365 nM
Notes: natural RNA segment, single round, ends assumed
Relative to: no-protein control
Reading: higher = stronger binding
Shared flanks, not repeated: GGGAGUUCUACAGUCCGACGAUC … UGGAAUUCUCGGGUGCCAA
Target sequence (chain): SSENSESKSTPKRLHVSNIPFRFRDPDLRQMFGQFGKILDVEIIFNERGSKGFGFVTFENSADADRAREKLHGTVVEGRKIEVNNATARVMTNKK
Strand | RBNS enrichment (R)
ACACCAACAUCCAGAUGUCACAGCUCUCCAGAGCUAGUCAGAAGAGAAAUCAAAUUAGUGUUUAAACCCAUUUGCAUAUUGACUUGUCAGUACCUUUAACUCAAUUUAAU | 0.474
GAAGAAAACAUUUGAAUUUACCUUCAUAUGCCACUAAGAACAAAAGCUCUGAAGUUCUUCCUGCUGGCACCAAAUAUUAGGAUUACAAGCUGUCUCUCUGACACCAGUGG | 0.236
CCCAGGCCCAGAUUAGCCACUCGUUAGCUGUGUGACUGACUCUGGGCUAGUCACCUGGCCCCUGUGUGCCCCGUGUUCAUCUGUGAAAGGAGGUAAAAAAAAAAAAAUAU | 0.372
UUUUUUAAAGAGAGAGAGAAAAGAGAAAAAAGCUUUUAUUUCCUUGGAUCUCAUUAUCAGAAAUAUUAUUCAGCUCAAGAAAUCUGACCCCAUAUUGGAAAAUGAAUGUC | 0.943
AGAGGGAGCACUGCCUCACAAACUGUGAGACUGCGUUUUUUAUACUUGGAAGUGGUGAAUUAUUUUAUAUAAGGUCAUUUAAAUAUCUAUUUAAAAAAUAGGAAGCUGCU | 0.587
CAGGUGGCUGGGGACACUGCAUAUUCCCUGCUGGUGGCUCGGCUCACCUGUUCUGCCUCCCUUGGCCACUUUGCUUCAGCUCAAAGGCACAGCUCAGUUUAAAAGCCAAA | 0.537
GGAGGGAAGAGAUGGCCGCAAGAGGGGCCACCUCUUAGGUCAGAUGGAAGAUCUCAGAGCCAAGUCCUUCUACUCACGAGUAGAAGGACCGUUGGCCAACAGCCCUUUCA | 0.35
GCAAGAGUUUAACAUCUUCGGCCCUGCAUUCCUACAUCUUGUGUCUGUACACGUUCUUAAGCAGCGUGUCAGGAGAGCACCCUGUUGUCUUCUGGUAAAUGUGUGCAGGG | 0.467
CGUAUUUCUCAUAGGCUAUGCCAUGUGCGGAAUUCAAGUUACCAAUGUAACACUGGCCAGCGGGCCCAGCAAUCUCCAUGUGUACUUAUUACAGUCUUAUUUAACCAGGG | 0.325
GAGACGCACCAUCCGCAGGCAGCGUCUCAGUGAAGCCUGUCCCCUGGGCUUGUCCACGGCAGGAGGCCCCUGGCCUGUUUAAGCCAUACCGAUGCUUAAUUUACAUUUUU | 0.301
UGAAGAUGAUGACGAGGAAUCGGAAGCCCAGGGGCCCAAUGAAGUUGCUCGCAGCUGGGGUGUGGGGCCAAGUGGCAGCCAGGGCCAAGACAAGCAGCAUCUGUCCCCCC | 0.939
GCCCACCUUCUUUUUCUUUCCUUCCUACCUGCCUUCUUUGAUGCCAACCCCAACAGACCCGUAGGGGGAGAAAAGGGAGGAAAAAAGUAAUUUUAAGGGGCCAAAGCUUU | 0.325

Series 2
Target: Prothrombin, mature alpha-thrombin (F2, Homo sapiens, UniProt P00734)
Method: aptamer microarray, sandwich
Form: DNA with 2'F-ANA
Matrix: in vitro
Tested at: 200 nM
Notes: whole 15-mer aptamer, many near background
With: Cy3 exosite-II aptamer, 400 nM
Reading: higher = stronger binding
Strand: GGTTGGTGTGGTTGG
Modification | mean fluorescence intensity [a.u.]
2'F-ANA at 4 7 8 | 557
2'F-ANA at 1 3 4 5 6 7 8 9 10 11 13 | 50.1
2'F-ANA at 3 5 10 13 | 53.8
2'F-ANA at 1 3 7 9 10 12 14 15 | 89.5
2'F-ANA at 1 4 5 7 9 14 15 | 45.6
2'F-ANA at 1 2 3 5 6 7 11 14 | 51.5
2'F-ANA at 1 2 4 5 8 10 11 15 | 47
2'F-ANA at 3 4 5 8 9 11 12 14 | 56.3
2'F-ANA at 2 4 7 8 9 12 13 15 | 424
2'F-ANA at 5 7 8 9 11 13 14 15 | 53.7
2'F-ANA at 5 6 9 10 11 12 15 | 50.5
2'F-ANA at 1 3 7 8 12 14 15 | 171
2'F-ANA at 2 4 6 7 8 9 10 11 13 14 15 | 112
2'F-ANA at 2 4 8 12 14 | 168
2'F-ANA at 3 4 5 10 11 12 | 67.6
2'F-ANA at 1 4 5 6 7 9 10 12 13 14 15 | 48.8
2'F-ANA at 1 2 4 6 9 10 11 12 | 64.6
2'F-ANA at 1 2 3 4 6 10 11 14 15 | 62.8
2'F-ANA at 1 2 3 5 6 9 11 12 13 15 | 81
2'F-ANA at 2 4 5 6 7 8 11 12 15 | 108
2'F-ANA at 1 2 6 7 9 10 12 | 63
2'F-ANA at 3 5 8 10 11 15 | 92.5

Series 3
Target: Sal-like protein 4, full length isoform A (SALL4, Homo sapiens, UniProt Q9UJQ4, residues 1-1053)
Chain of UniProt Q9UJQ4 (whole entry, looked up): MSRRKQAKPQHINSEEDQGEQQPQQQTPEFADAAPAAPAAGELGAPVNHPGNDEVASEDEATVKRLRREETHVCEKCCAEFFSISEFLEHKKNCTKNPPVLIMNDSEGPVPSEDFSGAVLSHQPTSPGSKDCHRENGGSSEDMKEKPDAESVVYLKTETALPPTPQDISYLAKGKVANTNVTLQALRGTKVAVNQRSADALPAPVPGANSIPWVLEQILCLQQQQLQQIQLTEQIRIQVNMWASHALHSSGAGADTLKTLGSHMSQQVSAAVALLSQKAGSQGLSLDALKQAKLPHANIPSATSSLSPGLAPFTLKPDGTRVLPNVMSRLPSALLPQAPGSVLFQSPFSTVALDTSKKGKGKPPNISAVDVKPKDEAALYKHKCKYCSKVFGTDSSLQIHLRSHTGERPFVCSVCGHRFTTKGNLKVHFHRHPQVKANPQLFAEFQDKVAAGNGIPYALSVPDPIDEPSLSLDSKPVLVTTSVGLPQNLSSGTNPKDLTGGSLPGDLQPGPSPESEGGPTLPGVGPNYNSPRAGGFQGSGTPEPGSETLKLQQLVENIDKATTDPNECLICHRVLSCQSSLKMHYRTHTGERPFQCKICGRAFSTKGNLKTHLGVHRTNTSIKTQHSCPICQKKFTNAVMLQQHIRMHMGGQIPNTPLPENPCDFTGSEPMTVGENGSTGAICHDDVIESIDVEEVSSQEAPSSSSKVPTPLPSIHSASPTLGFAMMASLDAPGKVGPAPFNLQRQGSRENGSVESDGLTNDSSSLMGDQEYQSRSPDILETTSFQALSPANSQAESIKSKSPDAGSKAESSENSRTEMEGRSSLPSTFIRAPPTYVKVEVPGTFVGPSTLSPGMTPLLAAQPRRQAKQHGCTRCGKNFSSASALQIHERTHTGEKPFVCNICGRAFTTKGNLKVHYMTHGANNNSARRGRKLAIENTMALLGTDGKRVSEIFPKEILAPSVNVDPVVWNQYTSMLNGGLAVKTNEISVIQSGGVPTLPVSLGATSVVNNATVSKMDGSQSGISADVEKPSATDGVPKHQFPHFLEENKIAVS
Method: universal PBM
Form: double-stranded DNA, one strand shown
Matrix: in vitro
Tested at: 600 nM
Notes: 8-mer, flanks averaged, mean of replicates
Reading: higher = stronger binding
Strand | E-score
AAAATCCT | 0.122
ACAAGATC | 0.043
GTAAAGAA | 0.172
AATAGATT | 0.3
ATAATCGG | 0.183
ATGTCGTG | -0.0928
AGAGAACC | -0.256
GCCAAGTA | -0.174
CTGAACCC | -0.316
TGAAGTAA | 0.127
CAGCAATC | 0.0413
CACGTCCG | -0.242
CACCCTCA | -0.148
GCCCAGGC | -0.298
ACTCTCCG | 0.0118
ATGGGGGA | -0.0744
ATCCTCTC | -0.1
CTTACTGC | 0.0168
CAGGAATA | 0.177
CCGCGCAC | -0.316
TAAGTCGA | 0.105
TTGCTAAA | 0.123
GGGTAGAC | -0.291

Series 4
Target: ABI1, truncated, D143A, DHFR fusion (Arabidopsis thaliana)
Method: DHFR PCA, deep sequencing
Matrix: yeast
Notes: methotrexate growth selection, single substitutions
With: (+)-ABA 58 µM
Relative to: wild-type fitted maximum
Reading: higher = stronger binding
Starting sequence: PYL1, truncated, DHFR fusion (Arabidopsis thaliana); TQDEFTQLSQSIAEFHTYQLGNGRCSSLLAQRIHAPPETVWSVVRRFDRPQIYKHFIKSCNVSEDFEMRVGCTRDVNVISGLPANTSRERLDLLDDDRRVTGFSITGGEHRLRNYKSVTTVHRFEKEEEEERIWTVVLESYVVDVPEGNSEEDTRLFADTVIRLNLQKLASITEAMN; partner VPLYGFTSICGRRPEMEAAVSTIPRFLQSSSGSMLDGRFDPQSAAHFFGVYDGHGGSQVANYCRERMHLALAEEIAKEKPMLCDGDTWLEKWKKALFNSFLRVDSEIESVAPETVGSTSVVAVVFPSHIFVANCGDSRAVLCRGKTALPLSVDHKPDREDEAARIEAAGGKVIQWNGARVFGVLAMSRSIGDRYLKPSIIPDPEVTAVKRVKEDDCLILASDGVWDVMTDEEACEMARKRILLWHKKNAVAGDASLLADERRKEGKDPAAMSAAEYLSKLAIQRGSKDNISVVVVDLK
Variant | relative binding score [%]
V145D | -6.31
F103D | -5.94
V100Q | 39.8
I52L | 85.1
D48P | 11.2
V44M | 47.8
S150N | 78.4
Q19R | 90.9
S104P | -8.07
E4W | 84.7
T154I | 51
G148M | 49.9
F124Y | 95.5
E139K | 29.5
S11W | 83.4
V161S | 5.4

Series 5
Target: UBE2N UBC core domain (UniProt P61088)
Method: yeast two-hybrid
Matrix: yeast
Notes: mostly zero background
Relative to: not given
Reading: higher = stronger interaction
B1: TRIM60 RING domain (UniProt Q495X7); chain ALVNLQEESSCPICLEYLKDPVTINCGHNFCRSCLSVSWKDLDDTFPCPVCRFCFPYKSFRR
B2: TRIM37 RING domain (UniProt O94972); chain SVESIAEVFRCFICMEKLRDARLCPHCSKLCCFSCIRRWLTEQRAQCPHCRAPLQLRELVN
B3: TRIM54 RING domain (UniProt Q9BYV2); chain SMDNLEKQLICPICLEMFSKPVVILPCQHNLCRKCANDVFQASNPLWQSRGSTTVSSGGRFRCPSCRHEVVLDRHGV
B4: TRIM26 RING domain (UniProt Q12899); chain PLRSLEEEVTCSICLDYLRDPVTIDCGHVFCRSCTTDVRPISGSRPVCPLCKKPFKKENIRP
B5: DEF8 RING domain (UniProt Q6ZN54); chain AGRLGCSLTEIHTLFAKHIKLDCERCQAKGFVCELCREGDVLFPFDSHTSVCADCSAVFHRDCYYDNSTTCPKCARLSLRK
B6: RNF183 RING domain (UniProt Q96D59); chain EQQGRELEAECPVCWNPFNNTFHTPKMLDCCHSFCVECLAHLSLVTPARRRLLCPLCRQPTVLASGQP
B7: RLIM RING domain (UniProt Q9NVW2); chain SFGENDALKTCSVCITEYTEGNKLRKLPCSHEYHVHCIDRWLSENSTCPICRRAVLASGNRE
Target sequence (chain): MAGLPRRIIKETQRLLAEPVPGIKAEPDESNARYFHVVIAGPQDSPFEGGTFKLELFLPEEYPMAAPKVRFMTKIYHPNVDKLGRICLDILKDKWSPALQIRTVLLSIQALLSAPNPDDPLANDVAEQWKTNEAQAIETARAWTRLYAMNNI
Sequence | lacZ reporter activity
B1 (TRIM60 RING domain) | 0
B2 (TRIM37 RING domain) | 0
LGTKLEAKYLCSACRNVLRRPFQAQCGHRYCSFCLASILSSGPQNCAACVHEGIYEEGIS (TRAF2 RING domain (UniProt Q12933)) | 0
B3 (TRIM54 RING domain) | 0
LDAASGHPLVCPLCHGQYERPCLLDCFHDFCTGCLRGRATDGRLSCPLCQHQTLVKGPSG (Rnf207 RING domain (UniProt Q3V3A7)) | 0
B4 (TRIM26 RING domain) | 0
B5 (DEF8 RING domain) | 0
B6 (RNF183 RING domain) | 0
B7 (RLIM RING domain) | 0

Some of these lines once more (series 3):
Strand | E-score
TTGCTAAA | 0.123
AGAGAACC | -0.256
CTGAACCC | -0.316
GCCAAGTA | -0.174
TGAAGTAA | 0.127
CACCCTCA | -0.148
ATGGGGGA | -0.0744
ATCCTCTC | -0.1
GCCCAGGC | -0.298
CAGGAATA | 0.177
ATAATCGG | 0.183
GGGTAGAC | -0.291
